# Results gathered from unrelated publications.
# Each line is one published result; not all experiments were run side by side. ± marks the error that the study gave.
SMILES,test,test system,setting,logD
Cc1nonc1Cn1nnc2c(N3CC[C@H](O)C3)nc(C(C)(C)C)nc21,,,pH 7.4,3.68 ± 0.04
CC(C)C[C@@H](NC(=O)[C@H](C)NC(=O)CNC(=O)[C@@H](NC=O)C(C)C)C(=O)N[C@@H](C)C(=O)N[C@@H](C(=O)N[C@H](C(=O)N[C@@H](C(=O)N[C@@H](Cc1c[nH]c2ccccc12)C(=O)N[C@H](CC(C)C)C(=O)N[C@@H](Cc1cccc2[nH]ccc12)C(=O)N[C@H](CC(C)C)C(=O)N[C@@H](Cc1c[nH]c2ccccc12)C(=O)N[C@H](CC(C)C)C(=O)N[C@@H](Cc1c[nH]c2ccccc12)C(=O)NCCO)C(C)C)C(C)C)C(C)C,UHPLC retention on C18,,,5.1
CN1C(=O)Cc2ccc(F)c(CNCCCC3CN(c4ccc5c(n4)NC(=O)CO5)C(=O)O3)c21 (centres unmarked),eLogD,,,1.06
CCOC(=O)[C@](CC)(CCC[S+]([O-])CCOCCOCCNC(=O)OC(C)(C)C)NC(=O)c1ccc(C2CC2)c(Cc2ccc(F)cc2)n1 (some centres unmarked),,,,3.2
Cc1n[nH]c2c(-c3cn(C(C)c4ccccc4)c(=O)[nH]c3=O)cccc12 (centres unmarked),,octanol/water,pH 7.4,2.73
CS(=O)(=O)NC(=O)NCc1ccccc1,,,"pH 7.4, second measurement",-1.29
COc1ccc2c3c1O[C@H]1C(=O)C=C[C@H]4[C@@H](C2)N(C)CC[C@]314,,octanol/buffer,"1 h, pH 7.4",0.82
O=C(O)CCc1ccccc1,,,"pH 7.4, first measurement",-0.29
CN1CC[C@]23c4c5ccc(O)c4O[C@H]2[C@@H](O)CC[C@@]3(O)[C@H]1C5,,octanol/buffer,"1 h, pH 7.4",-1.05
Cn1c(=O)ccc2ccc(F)c(CCNC[C@H]3CN(c4ncc5c(n4)NC(=O)CO5)C(=O)O3)c21,eLogD,,,0.58
CC1(C)NC(=O)N(c2cccc(S(F)(F)(F)(F)F)c2)C1=O,chromatographic HPLC,,pH 7.4,3
Cn1c(=O)ccc2ccc(F)c(CCNC[C@H]3CN(c4ccc5c(n4)NC(=O)CO5)C(=O)O3)c21,eLogD,,,1.7
c1ccc(CCc2nnn[nH]2)cc1,,,"pH 7.4, first measurement",-0.36
O=C(O)CNC(=O)C1C(=O)N(C2CCCCC2)C(=O)N(C2CCCCC2)C1=O,miniaturised shake-flask,1-octanol/water,,1
CC(C)C[C@@H](NC(=O)[C@H](C)NC(=O)CNC(=O)[C@@H](NC=O)C(C)C)C(=O)N[C@@H](C)C(=O)N[C@@H](C(=O)N[C@H](C(=O)N[C@@H](C(=O)N[C@@H](Cc1c[nH]c2ccccc12)C(=O)N[C@H](CC(C)C)C(=O)N[C@@H](Cc1ccc2[nH]ccc2c1)C(=O)N[C@H](CC(C)C)C(=O)N[C@@H](Cc1c[nH]c2ccccc12)C(=O)N[C@H](CC(C)C)C(=O)N[C@@H](Cc1c[nH]c2ccccc12)C(=O)NCCO)C(C)C)C(C)C)C(C)C,UHPLC retention on C18,,,5.05
COc1ccc2c3c1O[C@H]1[C@@H](O)CC[C@@]4(O)[C@@H](C2)N(C)CC[C@]314,,octanol/buffer,"1 h, pH 7.4",-0.95
CC(c1cccc(-c2c[nH]cn2)c1)n1cc(-c2cccc3cn[nH]c23)c(=O)[nH]c1=O (centres unmarked),,octanol/water,pH 7.4,2.25
